Assay results collected from several papers.
Compare with care: the assays were run in different laboratories. Several values in a cell are separate wells, animals, samples, runs or records. Numbers after ± are the reported error.
VHL/BRD9: VHL/BRD9 (Homo sapiens, UniProt P40337+Q9H8M2)
Sequence of UniProt Q9H8M2 (whole entry, looked up): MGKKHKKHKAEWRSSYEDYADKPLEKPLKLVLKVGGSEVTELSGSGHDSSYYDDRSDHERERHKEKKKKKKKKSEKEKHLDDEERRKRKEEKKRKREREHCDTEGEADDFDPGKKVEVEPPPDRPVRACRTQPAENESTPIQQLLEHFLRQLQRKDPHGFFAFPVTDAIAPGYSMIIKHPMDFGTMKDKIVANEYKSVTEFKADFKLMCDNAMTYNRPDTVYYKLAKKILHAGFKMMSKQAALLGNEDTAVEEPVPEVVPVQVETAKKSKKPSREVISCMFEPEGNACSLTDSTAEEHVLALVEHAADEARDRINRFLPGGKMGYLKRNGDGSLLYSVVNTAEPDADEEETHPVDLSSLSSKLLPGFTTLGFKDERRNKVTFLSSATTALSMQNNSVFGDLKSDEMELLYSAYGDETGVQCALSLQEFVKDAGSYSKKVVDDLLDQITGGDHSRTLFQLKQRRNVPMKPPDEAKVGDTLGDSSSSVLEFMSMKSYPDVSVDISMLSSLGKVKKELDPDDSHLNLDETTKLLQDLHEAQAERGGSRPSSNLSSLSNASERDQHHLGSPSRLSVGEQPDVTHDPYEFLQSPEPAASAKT
Sequence of UniProt P40337 (whole entry, looked up): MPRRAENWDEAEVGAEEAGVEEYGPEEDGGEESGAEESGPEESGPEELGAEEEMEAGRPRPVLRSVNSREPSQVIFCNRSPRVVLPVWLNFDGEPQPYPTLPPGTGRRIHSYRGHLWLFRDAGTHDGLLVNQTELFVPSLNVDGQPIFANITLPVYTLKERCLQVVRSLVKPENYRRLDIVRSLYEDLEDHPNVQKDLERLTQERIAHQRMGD
GPX4: Phospholipid hydroperoxide glutathione peroxidase GPX4 (GPX4, Homo sapiens, UniProt P36969)
Sequence of UniProt P36969 (whole entry, looked up): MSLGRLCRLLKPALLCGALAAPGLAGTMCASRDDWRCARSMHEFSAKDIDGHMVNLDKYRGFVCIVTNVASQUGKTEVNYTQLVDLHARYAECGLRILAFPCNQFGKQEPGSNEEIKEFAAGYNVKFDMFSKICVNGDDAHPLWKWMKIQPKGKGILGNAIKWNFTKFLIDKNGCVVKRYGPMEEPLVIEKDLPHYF
TAGLN: Transgelin (TAGLN, Homo sapiens, UniProt Q01995)
Sequence of UniProt Q01995 (whole entry, looked up): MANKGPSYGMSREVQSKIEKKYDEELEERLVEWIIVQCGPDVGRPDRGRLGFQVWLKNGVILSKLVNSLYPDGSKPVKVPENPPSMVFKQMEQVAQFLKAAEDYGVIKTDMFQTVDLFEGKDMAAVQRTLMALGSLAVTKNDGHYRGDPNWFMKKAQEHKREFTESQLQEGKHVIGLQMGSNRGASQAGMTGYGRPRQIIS
ACOT11: Acyl-coenzyme A thioesterase 11 (ACOT11, Homo sapiens, UniProt Q8WXI4)
Sequence of UniProt Q8WXI4 (whole entry, looked up): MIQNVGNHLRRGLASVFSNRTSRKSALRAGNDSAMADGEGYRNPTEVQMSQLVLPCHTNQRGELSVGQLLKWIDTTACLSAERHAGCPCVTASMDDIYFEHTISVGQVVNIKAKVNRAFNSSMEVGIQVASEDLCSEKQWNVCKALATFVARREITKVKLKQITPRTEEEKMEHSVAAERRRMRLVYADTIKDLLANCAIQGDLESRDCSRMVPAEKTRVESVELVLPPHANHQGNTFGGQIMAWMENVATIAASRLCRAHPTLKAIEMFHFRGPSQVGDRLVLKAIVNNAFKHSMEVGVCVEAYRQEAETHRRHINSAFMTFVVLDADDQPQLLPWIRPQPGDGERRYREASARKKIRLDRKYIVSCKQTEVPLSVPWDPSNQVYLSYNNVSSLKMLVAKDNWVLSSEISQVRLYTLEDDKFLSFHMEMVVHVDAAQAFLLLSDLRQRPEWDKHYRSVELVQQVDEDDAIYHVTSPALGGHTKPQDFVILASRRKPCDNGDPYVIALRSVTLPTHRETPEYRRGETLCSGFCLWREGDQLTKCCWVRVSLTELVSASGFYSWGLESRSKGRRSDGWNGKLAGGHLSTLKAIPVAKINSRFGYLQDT
BTLA: B- and T-lymphocyte attenuator (BTLA, Homo sapiens, UniProt Q7Z6A9)
ALDH2: Aldehyde dehydrogenase, mitochondrial (ALDH2, Homo sapiens, UniProt P05091)
Sequence of UniProt Q9H4M9 (whole entry, looked up): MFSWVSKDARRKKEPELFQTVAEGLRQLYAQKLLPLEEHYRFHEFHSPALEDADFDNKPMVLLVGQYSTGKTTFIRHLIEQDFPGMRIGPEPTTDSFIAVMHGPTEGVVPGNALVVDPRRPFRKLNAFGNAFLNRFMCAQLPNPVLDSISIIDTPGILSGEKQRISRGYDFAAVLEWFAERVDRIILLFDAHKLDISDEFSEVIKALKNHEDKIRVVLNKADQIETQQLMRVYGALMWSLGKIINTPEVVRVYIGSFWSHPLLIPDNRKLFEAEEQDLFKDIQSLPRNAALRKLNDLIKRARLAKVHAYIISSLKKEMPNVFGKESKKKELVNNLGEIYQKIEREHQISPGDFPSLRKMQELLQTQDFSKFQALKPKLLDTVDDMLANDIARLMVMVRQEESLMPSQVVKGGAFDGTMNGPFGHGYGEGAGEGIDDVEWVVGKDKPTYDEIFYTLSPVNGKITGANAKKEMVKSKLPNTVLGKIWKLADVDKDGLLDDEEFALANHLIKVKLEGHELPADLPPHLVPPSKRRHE
Sequence of UniProt P08191 (whole entry, looked up): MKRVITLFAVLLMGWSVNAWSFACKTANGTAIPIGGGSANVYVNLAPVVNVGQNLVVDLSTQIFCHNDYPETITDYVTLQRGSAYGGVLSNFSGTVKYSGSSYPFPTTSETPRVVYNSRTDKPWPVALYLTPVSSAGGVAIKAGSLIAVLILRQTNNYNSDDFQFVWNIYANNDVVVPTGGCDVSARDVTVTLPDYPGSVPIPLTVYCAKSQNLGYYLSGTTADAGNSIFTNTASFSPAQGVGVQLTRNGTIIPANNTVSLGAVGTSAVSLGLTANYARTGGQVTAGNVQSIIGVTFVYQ
Sequence of UniProt P05091 (whole entry, looked up): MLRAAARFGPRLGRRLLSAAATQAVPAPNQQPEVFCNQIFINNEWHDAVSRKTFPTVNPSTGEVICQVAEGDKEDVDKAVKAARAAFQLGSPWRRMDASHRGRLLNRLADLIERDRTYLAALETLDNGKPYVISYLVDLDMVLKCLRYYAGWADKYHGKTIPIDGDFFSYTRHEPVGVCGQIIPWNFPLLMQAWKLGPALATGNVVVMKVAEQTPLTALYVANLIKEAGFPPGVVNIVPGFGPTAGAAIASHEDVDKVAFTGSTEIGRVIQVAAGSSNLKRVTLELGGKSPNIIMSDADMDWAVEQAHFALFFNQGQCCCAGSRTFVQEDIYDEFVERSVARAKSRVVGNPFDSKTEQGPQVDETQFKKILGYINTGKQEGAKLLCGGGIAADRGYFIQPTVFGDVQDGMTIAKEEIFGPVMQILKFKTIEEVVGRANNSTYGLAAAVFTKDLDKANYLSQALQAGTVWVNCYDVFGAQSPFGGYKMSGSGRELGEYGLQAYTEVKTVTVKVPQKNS
Sequence of UniProt Q96P20 (whole entry, looked up): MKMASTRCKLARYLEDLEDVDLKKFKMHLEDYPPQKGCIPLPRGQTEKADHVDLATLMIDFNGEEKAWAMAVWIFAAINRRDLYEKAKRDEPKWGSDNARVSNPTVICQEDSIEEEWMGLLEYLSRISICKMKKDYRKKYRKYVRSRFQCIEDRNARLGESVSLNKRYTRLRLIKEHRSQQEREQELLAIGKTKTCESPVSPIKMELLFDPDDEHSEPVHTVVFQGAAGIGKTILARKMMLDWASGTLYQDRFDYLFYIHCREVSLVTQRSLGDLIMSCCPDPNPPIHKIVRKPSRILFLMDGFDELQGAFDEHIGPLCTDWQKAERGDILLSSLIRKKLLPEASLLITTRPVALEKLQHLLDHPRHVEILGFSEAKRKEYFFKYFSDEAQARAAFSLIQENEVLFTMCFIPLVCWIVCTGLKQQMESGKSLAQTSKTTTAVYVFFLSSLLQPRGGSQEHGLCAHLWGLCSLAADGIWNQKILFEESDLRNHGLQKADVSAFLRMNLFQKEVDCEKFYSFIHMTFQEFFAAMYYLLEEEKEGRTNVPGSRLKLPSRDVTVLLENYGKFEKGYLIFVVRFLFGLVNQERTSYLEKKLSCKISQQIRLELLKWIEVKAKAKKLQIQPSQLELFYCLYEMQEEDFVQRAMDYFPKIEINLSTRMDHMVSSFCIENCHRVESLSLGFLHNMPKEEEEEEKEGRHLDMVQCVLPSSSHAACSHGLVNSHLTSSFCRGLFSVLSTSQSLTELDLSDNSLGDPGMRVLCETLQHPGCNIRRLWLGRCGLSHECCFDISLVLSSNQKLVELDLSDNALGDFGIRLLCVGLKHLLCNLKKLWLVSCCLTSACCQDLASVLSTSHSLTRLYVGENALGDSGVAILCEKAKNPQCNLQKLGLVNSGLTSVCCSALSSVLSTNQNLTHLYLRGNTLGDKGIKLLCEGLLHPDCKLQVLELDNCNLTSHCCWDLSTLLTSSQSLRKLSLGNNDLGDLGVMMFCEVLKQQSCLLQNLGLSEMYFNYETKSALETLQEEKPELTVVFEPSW
Sequence of UniProt P16442 (whole entry, unmodified, looked up): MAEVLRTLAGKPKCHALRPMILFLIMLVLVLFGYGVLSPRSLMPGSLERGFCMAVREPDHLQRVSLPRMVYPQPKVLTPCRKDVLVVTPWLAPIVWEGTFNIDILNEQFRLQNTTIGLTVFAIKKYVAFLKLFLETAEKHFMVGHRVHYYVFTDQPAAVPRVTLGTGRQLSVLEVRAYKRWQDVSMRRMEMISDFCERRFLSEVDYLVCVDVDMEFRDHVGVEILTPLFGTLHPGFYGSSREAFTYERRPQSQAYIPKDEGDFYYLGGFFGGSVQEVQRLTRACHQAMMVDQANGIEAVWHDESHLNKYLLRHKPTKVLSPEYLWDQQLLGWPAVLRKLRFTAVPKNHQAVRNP
Sequence of UniProt Q9SZU7 (whole entry, unmodified, looked up): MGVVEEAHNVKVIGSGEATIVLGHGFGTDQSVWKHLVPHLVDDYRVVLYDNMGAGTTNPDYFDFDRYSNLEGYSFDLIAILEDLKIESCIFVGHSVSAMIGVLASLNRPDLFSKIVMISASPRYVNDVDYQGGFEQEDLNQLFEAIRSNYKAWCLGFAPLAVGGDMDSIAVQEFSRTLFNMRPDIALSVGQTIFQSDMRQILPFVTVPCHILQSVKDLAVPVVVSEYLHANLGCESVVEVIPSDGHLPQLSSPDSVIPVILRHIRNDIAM

CC(=O)NCCN(c1nc(N2CC3C(CCOc4cc(-c5scnc5C)ccc4CNC(=O)[C@@H]4C[C@@H](O)CN4C(=O)[C@@H](NC(=O)C4(F)CC4)C(C)(C)C)C3C2)nc(N2CC(n3ccnc3)C2)n1)C(C)C (some centres unmarked)
Kd (VHL/BRD9; ternary binding, SPR; added: VCB at 2 µM): 1.3 µM

CCCCCCCO[C@H]1[C@H](OC)O[C@H](CO)[C@@H](O)[C@H](O)[C@@H]1O
Kd (Type 1 fimbrin D-mannose specific adhesin, lectin domain (fimH, Escherichia coli K-12, UniProt P08191); binding, isothermal titration calorimetry; 25 °C, individual titrations): 2.15 µM and 2.29 µM

C#CCN1CCN(c2nc(N3CCC(CCOc4cc(-c5scnc5C)ccc4CNC(=O)[C@@H]4C[C@@H](O)CN4C(=O)[C@@H](NC(=O)C4(F)CC4)C(C)(C)C)CC3)nc(N3CCN(C(=O)C4CC4)C3)n2)CC1=O
Kd (VHL/BRD9; ternary binding, SPR; added: VCB at 2 µM): 1.8 µM

O=C(Nc1cccc(Cl)c1)c1ccc(=O)[nH]c1
Kd (GPX4; binder, HSQC NMR titration; DLPC/DPC micelles): > 400 µM

COc1ccc(/C=C/c2c(/C=C/C(=O)OC(Cc3ccc(OC)c(OC)c3)C(=O)O)ccc(OC)c2OC)cc1OC (centres unmarked)
Kd (TAGLN; binding, surface plasmon resonance): 40.9 µM

Cc1ncsc1-c1ccc(C(C)NC(=O)C2CC(O)CN2C(=O)C(NC(=O)CCCCCCCCCCN2CCCC(Nc3ncc(Cl)c(Nc4ccccc4S(=O)(=O)C(C)C)n3)C2)C(C)(C)C)cc1 (centres unmarked)
log2 fold change (22Rv1; RNA-seq, refers to: ZCCHC24 mRNA; concentration not given; baseline: DMSO): -1.35

C#CCN1CCN(c2nc(N3CCN(c4ccc(Cc5cc(CNC(=O)[C@@H]6C[C@@H](O)CN6C(=O)[C@@H](NC(=O)C6(F)CC6)C(C)(C)C)c(O)cc5-c5scnc5C)cc4)CC3)nc(N3CCN(C(=O)C4CC4)C3)n2)CC1=O
Kd (VHL/BRD9; ternary binding, SPR; added: VCB at 2 µM): 1.8 µM

Cc1[nH]c2ccccc2c1C(c1cccs1)N1CCN(C(=O)C(C)C)CC1 (centres unmarked)
Kd (ACOT11; binding, microscale thermophoresis): 0.67 µM

CC(C)OCCOCc1ccc(OCC(O)CN(N=O)C(C)C)cc1 (centres unmarked)
revertant fold increase (Salmonella typhimurium; Ames test; TA1537; 158 µg/plate, without metabolic activation; baseline: solvent control): 0.7 fold

CC(=O)NCC1CCCCN1c1nc(NCC2Cc3ccccc3O2)nc(N2CC3C(CCOc4cc(-c5scnc5C)ccc4CNC(=O)C4CC(O)CN4C(=O)C(NC(=O)C4(F)CC4)C(C)(C)C)C3C2)n1 (centres unmarked)
Kd (VHL/BRD9; ternary binding, SPR; added: VCB at 2 µM): 0.538 µM

O=C1C=C(Nc2ccccc2)CN1
Kd (GPX4; binder, HSQC NMR titration; DLPC/DPC micelles): > 400 µM

NC(=O)C[C@@H]1NC(=O)[C@H](Cc2ccc(O)cc2)NC(=O)CNC(=O)CNC(=O)[C@H](CCC(=O)O)NC(=O)[C@H](CCC(=O)O)NC(=O)[C@H](Cc2ccccc2)NC(=O)[C@@H]2CCCN2C1=O
Kd (EH domain-containing protein 1, EH domain (Homo sapiens, UniProt Q9H4M9); peptide binding, ITC; 20 °C, 15 mM NaCl): 2.61 µM and 2.76 µM and 1.84 µM and 2.87 µM

O=C(CCc1ccc(O)c(O)c1/C=C/c1ccc(O)c(O)c1)OC(Cc1ccc(O)c(O)c1)C(=O)O (centres unmarked)
Kd (TAGLN; binding, surface plasmon resonance): 21.9 µM

Cc1c[nH]c2nccc(-c3ccc(C(=O)N[C@@H]4c5c(F)cc(C(F)F)cc5C[C@@H]4O)cn3)c12
Kd (NUAK1 (Homo sapiens, UniProt O60285); binding, competition with immobilised ligand): 0.92 µM

O=C(/C=C/c1ccc(O)c(O)c1/C=C/c1ccc(O)c(O)c1)OC(Cc1cccc(O)c1)C(=O)O (centres unmarked)
Kd (TAGLN; binding, surface plasmon resonance): 16.6 µM

CCOC(=O)N1CCN(C(c2cccs2)c2c(CC)[nH]c3ccccc23)CC1 (centres unmarked)
Kd (Acyl-coenzyme A thioesterase 11, START domain (ACOT11, Homo sapiens, UniProt Q8WXI4); binding, microscale thermophoresis): 4.12 µM

Nc1ccn(-c2ccc(Cl)cc2)c(=O)c1
Kd (GPX4; binder, HSQC NMR titration; DLPC/DPC micelles): > 400 µM

CCOC(=O)c1ccc(OCC(=NO)c2ccc(O)cc2O)cc1
Kd (BTLA; microscale thermophoresis): 0.83 µM

COc1ccc(/C=C/c2c(/C=C/C(=O)OC(Cc3ccc(O)c(O)c3)C(=O)O)ccc(OC)c2OC)cc1OC (centres unmarked)
Kd (TAGLN; binding, surface plasmon resonance): 35.4 µM

CCCCCCCCO[C@@H]1O[C@H](CO)[C@H](O)[C@H](O)[C@H]1O[C@@H]1O[C@@H](C)[C@@H](O)[C@@H](O)[C@@H]1O
Kd (ABO (Homo sapiens, UniProt P16442, G235S/G268A/L266M/R176G/W181E); methyl-TROSY NMR titration lineshape analysis; apo mutant enzyme): 35 ± 1 µM

CCOC(=O)C(Cc1ccccc1)OC(=O)CCc1ccc(OC)c(OC)c1CCc1ccc(OC)c(OC)c1 (centres unmarked)
Kd (TAGLN; binding, surface plasmon resonance): 41.4 µM

NCCC(=O)O
Kd (SLC6A6 (Homo sapiens, UniProt P31641, F58A)): 41.8 ± 14.8 µM

Cc1ncc(CNc2nc(N3CC(CCOc4cc(-c5scnc5C)ccc4CNC(=O)[C@@H]4C[C@@H](O)CN4C(=O)[C@@H](NC(=O)C4(F)CC4)C(C)(C)C)C3)nc(N3CCC[C@H]3Cn3ccnn3)n2)c(N)n1
Kd (VHL/BRD9; ternary binding, SPR; added: VCB at 2 µM): 0.909 µM

CC(/C=C/C(=O)NO)=C\[C@@H](C)C(=O)c1ccc(N(C)C)cc1
Kd (ALDH2; inhibitor, competition pulldown; SW620 and MV4-11 lysate; 1 h): > 30.2 µM

OC(Cc1cc(-c2ccc(C(O)C(F)(F)F)s2)sc1-c1ccc(-c2sc(-c3ccc(C(O)C(F)(F)F)s3)cc2CC(O)C(F)(F)F)s1)C(F)(F)F (centres unmarked)
Kd (Microtubule-associated protein tau, 0N4R isoform, aggregated (MAPT, Homo sapiens, UniProt P10636); binding, fluorescence; 20% sucrose tau fraction): 0.067 µM

CC(=O)Oc1ccc(NC(=O)Cc2ccccc2)c(C(=O)O)c1
Kd (ACOT11; binding, microscale thermophoresis): 17.5 µM

CCOC(=O)C(CCCCNC(=O)/C=C/c1ccc(O)c(O)c1/C=C/c1ccc(O)c(O)c1)Cc1ccccc1 (centres unmarked)
Kd (TAGLN; binding, surface plasmon resonance): 191 µM

Cc1nn(-c2cccc(N)c2)c(=O)c2cnc(Nc3ccc(N4CCNCC4)cc3)nc12
IC50 (PTK6 (Homo sapiens, UniProt Q13882); enzyme activity, inhibitor): > 10 µM

CCOC(=O)C(CCCCNC(=O)CCc1ccc(OC)c(OC)c1CCc1ccc(OC)c(OC)c1)Cc1ccccc1 (centres unmarked)
Kd (TAGLN; binding, surface plasmon resonance): 72.4 µM

COC1CN([C@H]2CC[C@H]([C@@]3(C)Oc4c(Cl)cc(C(=O)NCc5c(SC)cc(C)[nH]c5=O)c(C)c4O3)CC2)C1
log2 fold change (RNA-seq, refers to: MMP9 mouse homolog; mouse, HT-1376 xenograft, whole blood; dose not given; baseline: vehicle): 0.15

O=C(NS(=O)(=O)c1cccs1)c1cc2ccccc2n1Cc1ccc(Br)c2ccccc12
Kd (NLRP3 (Homo sapiens, UniProt Q96P20); binding, SPR): 27.8 µM

COc1ccc(C(=O)NO)cc1NC(=O)c1ccc(-c2ccccc2)cc1
Kd (ALDH2; inhibitor, competition pulldown; SW620 and MV4-11 lysate; 1 h): > 30.2 µM

Cn1ncc2cc(-c3cncc(Cl)c3N3CCC4(CCNC4=O)CC3)ccc21
Kd (MED1 (human); SILAC competition displacement; LS174T-L5 cell lysate): 0.002 µM

C=C(NC(=O)c1csc(-c2nc3c(cc2O)-c2nc(cs2)C(=O)NC(C(C)O)C(=O)NC(=C(C)OC)c2nc(cs2)C(=O)NC2c4nc(cs4)C(=O)NC(COC(=O)c4c5c6c(cccc6n4O)COC(=O)C(OC4CC(C)(O)C(N(C)C)C(C)O4)C2OC5)c2nc-3cs2)n1)C(N)=O (centres unmarked)
volume of distribution (cynomolgus monkey, both sexes, plasma; intravenous infusion, 3 mg/kg single dose): 1.02 L/kg

C=CC(=O)N1C[C@H](C)N(c2nc(OC[C@@]34CCCN3C[C@H](F)C4)nc3c(F)c(-c4ccc(F)c5sc(N)c(C#N)c45)c(C(F)(F)F)cc23)C[C@H]1C
Kd (GTPase KRas, GppNHp-bound (KRAS, Homo sapiens, UniProt P01116); GppNHp-bound wild type): 11.8 ± 1.3 µM

O=c1[nH]nc(-c2ccc(N3CCN(CCO)CC3)c([N+](=O)[O-])c2)c2ccccc12
Kd (BTLA; microscale thermophoresis): 0.69 µM

CCCC[C@H](NC(=O)COCCOCCNC(=O)CN1CCN(CC(=O)O)CCN(CC(=O)O)CC1)C(=O)N[C@H]1CC(=O)NCCCC[C@@H](C(N)=O)NC(=O)[C@H](Cc2c[nH]c3ccccc23)NC(=O)[C@H](CCCNC(=N)N)NC(=O)[C@@H](Cc2ccccc2)NC(=O)[C@H](Cc2c[nH]cn2)NC1=O [technetium-99m labelled]
tissue uptake (C57 mouse, brain; intravenous, 0.037 MBq, 24 h): 0.01 ± 0.01 %ID/g

CCOC(=O)N1CCN(C(c2cccs2)c2c(C)n(C)c3ccccc23)CC1 (centres unmarked)
Kd (ACOT11; binding, microscale thermophoresis): 1.65 µM

O=c1c2sccc2n(CC2COc3ccccc3O2)c(=O)n1O (centres unmarked)
Kd (Flap endonuclease 1 (Homo sapiens, UniProt P39748); binding, ITC; pH 7.5): 0.26 µM

CC(NC(=O)[C@H](NC(=O)[C@H](NC(=O)CCC(C)(C)C)C(C)(C)O)[C@H](C)c1ccccc1)C(=O)N1CCC[C@H]1c1ccccc1 (some centres unmarked)
Kd (G3BP1 (Homo sapiens, UniProt Q13283); binding, SPR): 44.5 µM

Cc1cccc2c1N(C(=O)n1ccnn1)CC2
Kd (KAI2 (Arabidopsis thaliana, UniProt Q9SZU7, S95D); ITC; S95D mutant, mean): 42.4 µM

COC(=O)CCCNC(=O)c1cc(S(N)(=O)=O)c(Cl)cc1NC1CCCCC1
Kd (CA5B (Homo sapiens, UniProt Q9Y2D0); pH 7): 14 µM

O=C(/C=C/c1ccc(O)c(O)c1/C=C/c1ccc(O)c(O)c1)NC(Cc1ccc(O)c(O)c1)C(=O)O (centres unmarked)
Kd (TAGLN; binding, surface plasmon resonance): 41.4 µM

N#C[C@@H]1CC(F)(F)CN1C(=O)CNC(=O)c1ccnc2c(NC(=O)[C@H](CCCCNC(=O)CCOCCOCCOCCOCCOCCOCCNC(=O)CN3CCN(CC(=O)[O-])CCN(CC(=O)[O-])CCN(CC(=O)[O-])CC3)NC(=O)CCCc3ccc(I)cc3)cccc12.[177Lu+3]
tracer uptake (U-87 MG tumour model; host not given, pancreas; 4 h, tumour-bearing): 2.19 %ID/g

Some of these lines once more:
Cc1[nH]c2ccccc2c1C(c1cccs1)N1CCN(C(=O)C(C)C)CC1 (centres unmarked)
Kd (ACOT11; binding, microscale thermophoresis): 0.67 µM

CC(C)OCCOCc1ccc(OCC(O)CN(N=O)C(C)C)cc1 (centres unmarked)
revertant fold increase (Salmonella typhimurium; Ames test; TA1537; 158 µg/plate, without metabolic activation; baseline: solvent control): 0.7 fold

CC(=O)NCC1CCCCN1c1nc(NCC2Cc3ccccc3O2)nc(N2CC3C(CCOc4cc(-c5scnc5C)ccc4CNC(=O)C4CC(O)CN4C(=O)C(NC(=O)C4(F)CC4)C(C)(C)C)C3C2)n1 (centres unmarked)
Kd (VHL/BRD9; ternary binding, SPR; added: VCB at 2 µM): 0.538 µM
